Results collected from several papers.
Each numbered part is a random draw from the data of one study; scales do not carry over between parts.

Sample 1
Target: Ras GTPase-activating protein-binding protein 1, full length (G3BP1, Homo sapiens, UniProt Q13283)
Chain of UniProt Q13283 (whole entry, looked up): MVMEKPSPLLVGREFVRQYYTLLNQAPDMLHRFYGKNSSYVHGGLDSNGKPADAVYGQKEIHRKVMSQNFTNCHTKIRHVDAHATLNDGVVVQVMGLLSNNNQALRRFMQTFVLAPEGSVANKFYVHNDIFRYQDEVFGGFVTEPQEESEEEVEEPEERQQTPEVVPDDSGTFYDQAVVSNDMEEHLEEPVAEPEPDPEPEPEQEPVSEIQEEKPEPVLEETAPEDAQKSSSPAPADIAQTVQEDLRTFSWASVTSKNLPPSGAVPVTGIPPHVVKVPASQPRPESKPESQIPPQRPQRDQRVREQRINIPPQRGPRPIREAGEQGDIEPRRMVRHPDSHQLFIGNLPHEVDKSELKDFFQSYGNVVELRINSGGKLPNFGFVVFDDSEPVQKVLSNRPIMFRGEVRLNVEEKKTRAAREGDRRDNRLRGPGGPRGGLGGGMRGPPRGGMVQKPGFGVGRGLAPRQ
Method: RNA Bind-n-Seq
Form: RNA
Medium: in vitro
Concentration: 200 nM
Notes: whole 134-nt RNA, ends assumed
Together with: 150 mM KCl
Baseline: input library
Reading: higher = stronger binding
Quantity: log2 enrichment
All sequences stand within: GGGAGUUCUACAGUCCGACGAUC … UGGAAUUCUCGGGUGUCAAGG
UGGGAGGUGGAUUUUGUUUAUUUUUAUAGCUCAUUUCCAGGGGUGGGAAUUUUUUUUUAAUAUGUGUCAUGAAUAAAGUUGUUUUUGAAA: 0.239
UGGCCCUGGUGGCAUGCGGGGAGGAAGAGGUGGCCUCAUGGAUCGUGGUGGUCCCGGUGGAAUGUUCAGAGGAGGCCGUGGUGGAGACAG: -0.021
UCCUGUGCUACACAUCGUAUGUACCGAAUCGGGGUUUUUUGGUUUUUUGGGGUUUUUUGGAAAGUAUUAUGUUACGCCGUUCGGAUCUGC: -0.248
ACCAUGCAGGUGGGCAUCUUUGGGAAGUGGGGCAAGGGGGGGAUAGGGAGGGGGGUAACACUUUGGGAACAGGUGGUCCCAGGUCGUGUC: 1.23
GGUAUUCUGCAAGUACUGUAGAUGUUAUAGAAAUGAUGGAGGAUGAUAAAGUUGAUCUGAAUUUGAUUGUUGCCCUCAUCCGAUACAUUG: -1.28
ACCAUGCAGGUGGGCAUCUUUGGGAAGUGGGGCAAGGGGGGGAUAGGGAGGGGGGUAACACUUUGGGAACAGGUGGUCCCCGGUCGUUUC: 1.45
CAAGUCCUGUGCUACACAUCGUAUGUACCGAAUCGGGAAAGGGAAAGGGGAAAGGAAAGUAUUAUGUUACGCCGUUCGGAUCUGCACUUC: -0.232
CUGUGCUACACAUCGUAUGUACCGAAUCAAAUUUUUUUAAACCCCCCCAAAUUUUUUUAAAAAAGUAUUAUGUUACGCCGUUCGGAUCUG: -0.12
CCUGUGCUACACAUCGUAUGUACCGAAUCGGUUUUUUUGGGGUUUUUUUGGGUUUUUUUGGAAAGUAUUAUGUUACGCCGUUCGGAUCUG: -0.71

Sample 2
Target: Eukaryotic initiation factor 4A-I (EIF4A1, Homo sapiens, UniProt P60842, residues 1-406, full length assumed)
Chain of UniProt P60842 (whole entry, looked up): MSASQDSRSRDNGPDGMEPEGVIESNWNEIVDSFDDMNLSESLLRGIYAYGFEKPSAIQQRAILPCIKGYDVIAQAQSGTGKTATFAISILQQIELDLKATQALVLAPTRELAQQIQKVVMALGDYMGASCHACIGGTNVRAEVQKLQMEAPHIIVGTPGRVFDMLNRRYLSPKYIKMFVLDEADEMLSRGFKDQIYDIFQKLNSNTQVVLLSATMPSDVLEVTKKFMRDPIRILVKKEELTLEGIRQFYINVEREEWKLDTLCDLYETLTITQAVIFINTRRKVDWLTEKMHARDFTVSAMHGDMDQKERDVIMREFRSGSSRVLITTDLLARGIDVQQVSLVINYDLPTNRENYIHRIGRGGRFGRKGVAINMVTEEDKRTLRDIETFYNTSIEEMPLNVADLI
Method: RNA Bind-n-Seq
Form: RNA
Medium: in vitro
Concentration: 15 pmol
Notes: 4-mer, random 30-nt RNA, single round
Together with: 3 µM RocA, 2 mM AMP-PNP
Baseline: mean of 4-mers
Reading: higher = stronger binding
Quantity: 4-mer enrichment Z-score
CUCU: -1.01
GAAG: 1.79
GUCG: -0.244
CAGU: -0.637
UUAG: 0.327
AGAU: 0.734
UAAA: 1.4
ACAC: -1.31
ACGG: 0.131
AAAG: 2.06
UUGU: 0.475

Sample 3
Target: RNA binding protein fox-1 homolog 2, RRM domain, GST-SBP tag (RBFOX2, Homo sapiens, UniProt O43251-10, residues 100-194)
Method: RNA Bind-n-Seq
Form: RNA
Medium: in vitro
Concentration: 365 nM
Notes: natural RNA segment, single round, ends assumed
Baseline: no-protein control
Reading: higher = stronger binding
Quantity: RBNS enrichment (R)
All sequences stand within: GGGAGUUCUACAGUCCGACGAUC … UGGAAUUCUCGGGUGCCAA
Residues (chain): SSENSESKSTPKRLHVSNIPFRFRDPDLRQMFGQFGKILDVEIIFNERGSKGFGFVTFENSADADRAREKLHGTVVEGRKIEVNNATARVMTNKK
AAUUCCACCAAGACAGUGCUGAGAUUGGAAAAGGGCACUCAUUUGGAUUGCCUUACUUCUCUUGCCUUAAAUAUAUCCCAUAUAUUUAAUAUGUCAAAAAGGGCUUGAGG: 0.547
UGUGGACCCAGUCUAGGCACCCCAGUACUUCCCUUCACCUUGUAGAAAAUGGUAAUGAAAGGGCAUGCCCAGGCUCUUUAGCAGCCCAGGGAAACAGAGAAGUCUCCCUU: 0.265
UAUCUGCUUCUUUUUACUUCUCCAGGUUUUGAUUUGUUUUGUUUUGUUUUAUUUGCGGGGGGAGUGGGAUACAUUUUGUUUUAAACAGAUAUGUGUAUUUGAUAGGUGGG: 27.5
CAAUGCGAGGCUGGUGCAGAUGGAGGUCCUCAUGAAUUAGUGCCAUGCUUUGUGGGAGUCUGGGUCGGCACACUGUCAGUACAUCAGGCACAUGGGCCCACUAGGCUGGG: 0.723
GAAGAGGACGAAGAAGAUUACGACUCCUACGCCUUCUGCCCCCCAGACCAUAGCCCCUUUUAGUUGGUUUUAGUUGCUCUGGGGGGAGGAGAGAAGGUAGAGCUGUUCUU: 0.411
UUCACAUCAACAGAGCGAGGCUGUGAUAACUUAGGAGGCAGCAAUCCUAAUAGUCCUUCAGUGCAUUUUAGUCUGUCUCCAACUGGACACCAGUAGGUAGUGUCAAGCCA: 0.553
ACACAUACAUGUCACAUUUAGCUGUGCUCAGAAGGGCUAUCAUCAUCCUACAACUCACAUUAGAGAACAUCCUGGCUUUUGAGCACUUUUCAAACAAUCAAGUUGACUCA: 0.323
AUAAAAAAAUAAUGCUGUUAAACAGGAGUUGACCUUCAUUUAGUUGAUGUAAUACAUAGCUGUAUGGGGUUUUUUUUAGUAAGUUCUUUGAGCAUAAUUCACUUUAAAGU: 0.957

Sample 4
Target: Phosphate system positive regulatory protein PHO4, full length, GST-tagged (PHO4, Saccharomyces cerevisiae, UniProt P07270, residues 1-312)
Method: competition protein-binding microarray
Form: double-stranded DNA, one strand shown
Medium: in vitro
Concentration: 2 µM
Notes: whole 60-bp probe, lowest competitor level
Together with: Cbf1 competitor, 0.05 µM
Reading: higher = stronger binding
Quantity: fluorescence intensity
All sequences stand within: … GTCTTGATTCGCTTGACGCTGCTG
Target sequence (chain): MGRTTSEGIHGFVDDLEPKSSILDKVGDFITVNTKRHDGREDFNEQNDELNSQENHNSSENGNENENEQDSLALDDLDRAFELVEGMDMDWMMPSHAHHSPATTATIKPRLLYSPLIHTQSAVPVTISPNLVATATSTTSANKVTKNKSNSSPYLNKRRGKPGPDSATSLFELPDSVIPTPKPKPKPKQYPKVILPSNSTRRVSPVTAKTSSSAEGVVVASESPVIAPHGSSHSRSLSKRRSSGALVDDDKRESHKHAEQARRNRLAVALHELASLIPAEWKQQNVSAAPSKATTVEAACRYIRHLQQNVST
AAGCCCAGATACAATCACCTGTAGAAAGAAACAAAG: 4450 a.u.
CTGTCCAACGCCTGCAGCGTGGATGTGGAGGCGGAC: 6640 a.u.
AGCTGATGCAATTATCCAATAATTTCTTTCACCACC: 4030 a.u.
CATACCCAACCTTGGCAGGTGGGTGAAGATATTTGT: 7200 a.u.
TTTGGGGTACGGAACAACGTGATTGGGAAGCTGCTC: 9530 a.u.
GTCTTGTCTCATTGAAGGGTGGGTGTCCCCACTTCA: 4630 a.u.
GTCTTGTCTCATTTTCACGTGTCTTTCCCCACTTCA: 13600 a.u.
TATTGGGCTATTTAGCACGTGATGGTAAAGTATATT: 15500 a.u.
CTTTCCCGATCTTGGAATGTGGGTGTAGCACATTTG: 6600 a.u.
CAATTACAGAAATGCCCCGTGTAACAAGATGCGCTG: 7420 a.u.
AGCCTGTCTATGGCCAAGCCATGTCAAGTACTACAA: 2970 a.u.
TCATTTGGTGTCCATCACGTGGAATACCTCCCCTAT: 14600 a.u.
CAAACTCAGTACCGTCAGCTGACAACTGCACTTCAA: 3230 a.u.
CGGGGTTAAGTTTGCTCTGTGGGTGGCTTGCAGCAG: 4920 a.u.
GAATATGAATGTTCCCTTAATCAGCCGGGATAATCT: 2880 a.u.
AAATTACTAAGTTGTTCAGTGGGTGACGCCGTATGA: 4030 a.u.
CCCCGAAATTGAGCGCACATGCTCGCAAGATAATAT: 11600 a.u.
CGATGTTCTTAATTACACGTGAATTATCAAAAACCA: 13200 a.u.
TGCCTCTGCGCTTTGCACGTTCAAAAGAAAAGCATA: 9850 a.u.

For quick reference, copied from above (sample 2):
ACGG: 0.131
CAGU: -0.637
AGAU: 0.734
